Measurements gathered from unrelated publications.
Protocols differ between the studies behind these lines. Numbers after ± are the reported error.

Structure (SMILES)	cell line	assay	test system	setting	scale	endpoint	result
CSCC[C@H](NC(=O)[C@@H](NC(=O)[C@H](CCC(N)=O)NC(=O)[C@H](CO)NC(=O)[C@@H](N)C(C)C)[C@@H](C)O)C(=O)N[C@@H](CCCNC(=N)N)C(=O)N[C@@H](CCC(N)=O)C(=O)N[C@H](C(=O)N[C@@H](C)C(=O)N[C@H](C(=O)N1CCC[C@H]1C(=O)N[C@@H](CC(C)C)C(=O)N[C@@H](CC(C)C)C(=O)N[C@@H](Cc1c[nH]c2ccccc12)C(=O)N[C@@H](Cc1ccccc1)C(=O)N[C@@H](Cc1c[nH]c2ccccc12)C(=O)N[C@H](C(=O)NCC(=O)N[C@@H](CO)C(=O)N[C@@H](CC(C)C)C(=O)NCCOCCOCCOCCOCCOCCOCCOCCOCCOCCOCCOCCOCCC(=O)N[C@@H](CS)C(N)=O)[C@@H](C)O)C(C)C)[C@@H](C)O	PC-9	phage binding	–	–	relative to: targeting over control phage	selectivity ratio	1.9 ± 0.62
O=C(O)c1ccc(-c2nc(-c3ccccc3Cl)c3sccn23)cc1	K562	CellROX Red	–	0.1 mM, 48 h	–	ROS level	58900 RFU
NC(=S)N/N=C/c1ccc(OCc2cccc(F)c2)cc1	IMR-32	item: GPX3	–	500 µg/mL, 24 h	higher = more activity	glutathione peroxidase activity (OD450)	0.363 a.u.
CC(C)CC(O)(CC(C)C)c1cn(C(=O)N2CCCC2)nn1	mouse T-cells	SILAC proteomics, item: OXSR1	–	1 nM, 6 h, unit not given	relative to: DMSO	protein level	1.07
O=C(C[Se]C(=O)c1ccc2ccccc2n1)Nc1cccc(C(F)(F)F)c1	NCI60 melanoma subpanel	cytotoxicity, inhibitor	–	five-dose	–	CC50	8.22 µM
Cc1cc(Oc2nc(N3CC[C@@H](c4ccncc4)C3)ncc2F)[nH]n1	CAKI-1	cell proliferation	kidney cancer	–	–	IC50	28.2 µM
O=C(C[Se]C(=O)c1ccccc1)Nc1cccc(C(F)(F)F)c1	NCI60 leukaemia subpanel	NCI60 five-dose screen	–	–	–	CC50	8.56 µM
CC(C)(C)C(=O)OCOP(=O)(OCOC(=O)C(C)(C)C)C1CCCN(O)C1=O (stereo not drawn)	T47D	–	–	–	–	GI50	0.543 µM
CC(C)[C@H](NC(=O)[C@H](CCCNC(=N)N)NC(=O)[C@@H]1CCCN1C(=O)[C@@H](NC(=O)[C@H](C)NC(=O)[C@H](Cc1ccc(O)cc1)NC(=O)[C@H](CCC(N)=O)NC(=O)[C@H](CCCCN)NC(=O)[C@H](CCCNC(=N)N)NC(=O)[C@@H]1CCCN1C(=O)[C@H](CCC(=O)O)NC(=O)[C@@H](NC(=O)[C@H](C)N)[C@@H](C)O)[C@@H](C)O)C(=O)N[C@@H](Cc1ccccc1)C(=O)N[C@@H](Cc1c[nH]c2ccccc12)C(=O)N[C@H](C(=O)N[C@@H](CC(=O)O)C(=O)N[C@@H](C)C(=O)N1CCC[C@H]1C(=O)NCC(=O)NCCOCCOCCOCCOCCOCCOCCOCCOCCOCCOCCOCCOCCC(=O)N[C@@H](CS)C(N)=O)[C@@H](C)O	MCF7 breast cancer	cell binding, phage binding, item: output/input phage	–	10 min, 37 °C	relative to: control phage	selectivity ratio	4.2 ± 3
